Experimental data from different studies.
Each line is one published result; not all experiments were run side by side. Values joined by “and” are separate records of one study, mostly repeats; a detail may differ. Numbers after ± are the reported error.

SMILES = O=C(CCCCCCC(=O)Nc1ccc(CC[18F])cc1)NO; medium = octanol/PBS; pH = pH 7.4; logP = 1.01 ± 0.02
SMILES = Oc1ccc(Cl)c2cccnc12; method = shake-flask, potentiometric; medium = 1-octanol/water; logP = 2.8
SMILES = CCn1c(C(=O)N(C2CC2)C2CC2)cc2c3c(ncn3C)c(Nc3cc(C)n(C)n3)nc21; medium = octanol/water; logP = 3.4
SMILES = C=Cc1c(C)c2cc3nc(c4c5[nH]c(cc6nc(cc1[nH]2)C(C)=C6CC)c(C)c5C(=O)C4)[C@@H](CCC(=O)O)[C@@H]3C; method = shake flask; medium = octanol/water 1:2; logP = 0.748
SMILES = COc1ccnc(C(=O)NC2CCCCC2)c1O; method = shake-flask, potentiometric; medium = 1-octanol/water; logP = 1.6
SMILES = COC(=O)/C=C/C(=O)NNC(=O)CCc1ccccc1C(=O)N[C@H](C)c1cccc(-c2cc3ccccc3o2)c1; logP = 4.1
SMILES = CC(C)CC(=O)N[C@H](C(=O)N[C@H](C(=O)N[C@@H](CC(C)C)[C@@H](O)CC(=O)N[C@@H](C)C(=O)N[C@@H](CC(C)C)[C@@H](O)CC(=O)NCCCC[C@H](NC(=O)CCOCCOCCNC(=O)CN1CCN(CC(=O)O)CCN(CC(=O)O)CC1)C(=O)O)C(C)C)C(C)C [gallium-68 labelled]; medium = water; logP = -2 ± 0.18
SMILES = CCCCOC(=O)/C=C/C(=O)NNC(=O)CCc1ccccc1C(=O)N[C@H](C)c1cccc2ccccc12; logP = 4.4
SMILES = CC(C)=CCC/C(C)=C/C(=O)O.Cc1cc(/C=C/C#N)cc(C)c1Nc1ccnc(Nc2ccc(C#N)cc2)n1; medium = octanol/water; temperature = room temperature; logP = 2.67 ± 0.01
SMILES = Cc1cnc(NC(=O)C2=C(O)c3ccccc3S(=O)(=O)N2C)s1; method = shake-flask, potentiometric; medium = 1-octanol/water; logP = 2.5
SMILES = COC(=O)Nc1ccc2nc(C(=N)N)ccc2c1; medium = octanol/buffer; pH = pH 11; setting = urokinase ligand set; logP = 1.71
SMILES = C[C@@H](NC(=O)c1ccccc1CCC(=O)NNC(=O)/C=C/C(=O)OCc1nccs1)c1cccc2ccccc12; logP = 3.1
SMILES = O=C(O)c1c(O)c(-c2ccccc2)nc2ccccc12; method = shake-flask, potentiometric; medium = 1-octanol/water; logP = 0.6
SMILES = O=C(Cn1nc(-c2cccc([N+](=O)[O-])c2)c2ccccc2c1=O)NCC1CCCO1 (stereo not shown); medium = octanol/buffer; pH = pH 11; setting = known kinase inactives set; logP = 2.27
SMILES = COc1ccc(COC(=O)/C=C/C(=O)NNC(=O)CCc2ccccc2C(=O)N[C@H](C)c2cccc3ccccc23)cc1OC; logP = 4.6
SMILES = CCCCC(CC)COC(=O)CC(C(=O)OCC(CC)CCCC)S(=O)(=O)O.O=C(NCCCNc1nc(Nc2cccc(NC(=O)N3CCCC3)c2)ncc1I)c1cccs1; method = shake flask; medium = octanol/water; logP = 3.3 ± 0.56
SMILES = CCc1ccccc1NC(=O)CSc1nnc(-c2cccc(OC)c2)n1C; medium = octanol/buffer; pH = pH 11; setting = known kinase inactives set; logP = 2.85
SMILES = CN1C(C(=O)Nc2nnc(C(F)(F)F)s2)=C(O)c2ccccc2S1(=O)=O; method = shake-flask, potentiometric; medium = 1-octanol/water; logP = 4
SMILES = COc1ccc2ccc(C(=N)N)cc2c1-c1cnn(C(C)C)c1; medium = octanol/buffer; pH = pH 11; setting = urokinase ligand set; logP = 2.09
SMILES = C=Cc1c(C)c2cc3nc(c4c5[nH]c(cc6nc(cc1[nH]2)C(C)=C6CC)c(C)c5C(=O)C4)[C@@H](CCC(=O)OC)[C@@H]3C; method = shake flask; medium = octanol/water 1:1; logP = 0.879
SMILES = C[C@@H](NC(=O)c1ccccc1CCC(=O)NNC(=O)/C=C/C(=O)OC1CCCCC1)c1cccc2ccccc12; logP = 4.9
SMILES = CC(=O)Nc1ccc(S(=O)(=O)Nc2c(C)nn(-c3ccccc3)c2C)cc1; medium = octanol/buffer; pH = pH 11; setting = known kinase inactives set; logP = 0.99
SMILES = C[C@H]1COC2=C1C(=O)C(=O)c1c2ccc2c1CCCC2(C)C; medium = n-octanol/water; time = 24 h; temperature = 25 °C; logP = 4.5 and 4.46
SMILES = N=C(N)c1ccc2cc(C(=O)Nc3ccc4c(c3)C(C3CCCCC3)=NCC4)ccc2c1; medium = octanol/buffer; pH = pH 11; setting = urokinase ligand set; logP = 4.19
SMILES = Cc1nc(C)c(-n2ccc(-c3ccc4c(c3)CCC(=O)N4)n2)nc1C; logP = > 3
SMILES = Nc1cc(F)ccc1NC(=O)c1ccc(CNC(=O)/C=C/c2cccnc2)cc1; medium = octanol/buffer; pH = pH 11; logP = -2.1
SMILES = CC(=Nc1ccc(N=Cc2cnccn2)cc1)N(C)C; method = shake flask; medium = 1-octanol/PBS; time = 1 h; pH = pH 7.4; temperature = 25 °C; logP = 1.74 ± 0.03
SMILES = CC(C)OC(=O)/C=C/C(=O)NNC(=O)CCc1ccccc1C(=O)N[C@H](C)c1cccc2ccccc12; logP = 3.8
SMILES = Cc1nn(C)cc1S(=O)(=O)NC(=O)c1ccc(-n2ccc(OCC(C)(C)C(F)(F)F)n2)nc1N1C[C@@H](C)CC1(C)C; method = shake-flask, potentiometric; medium = 1-octanol/water; logP = > 4.7
SMILES = C[C@@H](NC(=O)c1ccccc1CCC(=O)NNC(=O)/C=C/C(=O)OC(C)(C)C)c1cccc2ccccc12; logP = 4
SMILES = Cc1nnc(C(=O)NC(C)(C)c2nc(C(=O)NCc3ccc(F)cc3)c(O)c(=O)n2C)o1; method = shake-flask, potentiometric; medium = 1-octanol/water; logP = 1.7
SMILES = COc1cc(NC(=O)CSc2nncn2C)cc(OC)c1OC; medium = octanol/buffer; pH = pH 11; setting = known kinase inactives set; logP = 0.67
SMILES = Cc1cc(NC(=O)C2=C(O)c3ccccc3S(=O)(=O)N2C)no1; method = shake-flask, potentiometric; medium = 1-octanol/water; logP = 3.5
SMILES = C[C@@H](NC(=O)c1ccccc1CCC(=O)NNC(=O)/C=C/C(=O)OCCC(F)(F)F)c1cccc2ccccc12; logP = 3
